Experimental data of several laboratories.
± gives the spread as reported.

COc1ccc2nc(NC(=O)c3ccc(C(N)c4ccccc4)cc3)sc2c1 (centres unmarked) gave a plasma concentration of > 0.3 µM (CD-1 mouse female, plasma; intraperitoneal, 25 mg/kg, first six hours).
The plasma concentration of CC(C)=CCC[C@](C)(O)[C@H]1CC[C@]2(C)[C@@H]1[C@H](O)C[C@@H]1[C@@]3(C)CC[C@H](O)C(C)(C)[C@@H]3CC[C@]12C is reported as < 2 ng/mL (hairless mouse, male, plasma; topical, 25 mg/kg, 3 h).
For Cc1cc2c(c(=O)o1)C=C1CCC(C(C)CNCc3ccc(O)cc3)CC1O2 (centres unmarked), the plasma concentration was 14.7 µM (HPLC-MS; mouse; iv, 25 mg/kg, 5 min).
For COc1cc(CNC(=O)CCCC/C=C/C(C)C)ccc1N, the plasma concentration was < 1 ng/mL (C57BL/6 mouse; oral, 0.4 mg/kg, below quantitation limit).
With CCC1CC2C(C)=CC3C(=O)CCCC3C=CC(C)=CC2C(=O)O1 (centres unmarked) the plasma concentration was 8.4 ± 1.3 ng/mL (ICR mouse male, plasma; intravenous, 2 mg/kg, 30 min).
CSc1cc(C)[nH]c(=O)c1CN1CCc2c(Cl)c3c(c(C)c2C1=O)OC(C)(C1CCC(N(C)C)CC1)O3 (centres unmarked) — result for plasma concentration: “not detected” (mouse, plasma; oral, 10 or 25 mg/kg once daily, 24 h post dose).
With CCC1C=CC2CCN(C(=O)C3CCC4C=CC5(CCCN5C(=O)C(Cc5ccccc5Cl)NC(C)=O)C(=O)N43)C2C(=O)N1CC(=O)OC (centres unmarked) the plasma concentration was 1 µM (female NMRI nu/nu mouse, plasma; subcutaneous osmotic pump, 200 mg/kg/day, 48 h).
The plasma concentration of [2H]C([2H])([2H])C(c1cc2nnc(-c3cc(F)ccc3F)n2nc1OCc1ncnn1C)(C([2H])([2H])[2H])C([2H])([2H])[2H] is reported as 100 to 1000 ng/mL (CF-1 mouse, plasma; intraperitoneal, 30 to 300 mg/kg, 0.25 h, effective in 6 Hz seizure test).
For Cc1nc(NC(=O)N2CCC[C@H]2C(N)=O)sc1-c1csc(C(C)(C)C)n1, the plasma concentration was 21.1 ± 1.2 µM (mouse SK-OV-3 xenograft, plasma; intraperitoneal, 100 mg/kg single, 1 h).
With Cc1cc(C)c(-c2[nH]nc(C)c2C)cc1C(=O)N1CC(c2ccc(C#N)cc2)C1 the plasma concentration was 6800 ng/mL (mass spectrometry; mouse, Calu-6 xenograft, plasma; oral, 60 mg/kg, 6 h after last dose).
With Cn1cnnc1Sc1c2c(c(C#N)c3nc4ccccc4n13)CCCC2 the plasma concentration was 55.5 ng/mL (C57BL/6 mouse, plasma; intravenous, 0.3 µg/g, 5 min).
